Measured values from different studies.
Lines come from different studies, so protocols differ. Values joined by “and” are separate records of one study, mostly repeats; a detail may differ. Numbers after ± are the reported error.
4'-phosphopantetheinyl transferase PptT: 4'-phosphopantetheinyl transferase PptT (Mycobacterium tuberculosis, UniProt O33336)
Chain of UniProt O33336 (whole entry, looked up): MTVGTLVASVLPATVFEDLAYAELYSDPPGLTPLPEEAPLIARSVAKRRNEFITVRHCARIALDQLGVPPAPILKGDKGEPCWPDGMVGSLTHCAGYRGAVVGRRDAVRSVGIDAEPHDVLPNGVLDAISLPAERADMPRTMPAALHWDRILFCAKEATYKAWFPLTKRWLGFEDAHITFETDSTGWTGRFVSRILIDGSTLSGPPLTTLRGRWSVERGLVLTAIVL
CNR1: Cannabinoid receptor 1 (CNR1, Homo sapiens, UniProt P21554)
Chain of UniProt P21554 (whole entry, unmodified, looked up): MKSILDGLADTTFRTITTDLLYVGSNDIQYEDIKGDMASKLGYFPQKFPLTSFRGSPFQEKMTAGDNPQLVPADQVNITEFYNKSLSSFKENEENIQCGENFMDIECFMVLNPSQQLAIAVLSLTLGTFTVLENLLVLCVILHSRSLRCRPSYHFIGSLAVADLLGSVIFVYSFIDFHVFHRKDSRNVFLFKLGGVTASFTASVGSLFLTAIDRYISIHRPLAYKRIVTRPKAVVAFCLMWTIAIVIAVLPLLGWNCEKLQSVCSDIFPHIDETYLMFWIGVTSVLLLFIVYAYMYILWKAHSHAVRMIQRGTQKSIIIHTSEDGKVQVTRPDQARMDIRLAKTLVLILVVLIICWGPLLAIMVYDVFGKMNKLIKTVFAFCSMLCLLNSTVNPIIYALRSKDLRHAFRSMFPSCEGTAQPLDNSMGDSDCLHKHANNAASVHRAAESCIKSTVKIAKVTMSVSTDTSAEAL
dppA: dppA (Mycobacterium tuberculosis, UniProt I6X811)
Chain of UniProt P9WPA5 (whole entry, looked up): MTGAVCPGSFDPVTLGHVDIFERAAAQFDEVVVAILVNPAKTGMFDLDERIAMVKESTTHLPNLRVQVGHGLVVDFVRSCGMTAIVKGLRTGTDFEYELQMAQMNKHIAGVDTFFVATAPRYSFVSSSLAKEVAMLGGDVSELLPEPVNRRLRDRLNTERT
Chain of UniProt Q9BWU1 (whole entry, looked up): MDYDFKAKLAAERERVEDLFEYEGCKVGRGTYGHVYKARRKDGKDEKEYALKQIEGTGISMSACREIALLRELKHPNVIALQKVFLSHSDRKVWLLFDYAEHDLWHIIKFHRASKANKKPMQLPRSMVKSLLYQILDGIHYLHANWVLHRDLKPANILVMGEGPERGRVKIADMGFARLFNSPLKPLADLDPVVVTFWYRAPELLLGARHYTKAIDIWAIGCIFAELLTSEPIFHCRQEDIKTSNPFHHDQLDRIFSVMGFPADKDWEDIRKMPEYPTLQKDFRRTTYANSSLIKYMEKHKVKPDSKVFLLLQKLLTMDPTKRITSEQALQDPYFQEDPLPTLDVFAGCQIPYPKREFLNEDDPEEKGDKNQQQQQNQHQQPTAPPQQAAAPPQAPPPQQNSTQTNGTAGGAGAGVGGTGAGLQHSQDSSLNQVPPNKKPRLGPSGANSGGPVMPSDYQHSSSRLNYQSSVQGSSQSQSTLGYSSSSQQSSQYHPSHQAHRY
Chain of UniProt P41595 (whole entry, looked up): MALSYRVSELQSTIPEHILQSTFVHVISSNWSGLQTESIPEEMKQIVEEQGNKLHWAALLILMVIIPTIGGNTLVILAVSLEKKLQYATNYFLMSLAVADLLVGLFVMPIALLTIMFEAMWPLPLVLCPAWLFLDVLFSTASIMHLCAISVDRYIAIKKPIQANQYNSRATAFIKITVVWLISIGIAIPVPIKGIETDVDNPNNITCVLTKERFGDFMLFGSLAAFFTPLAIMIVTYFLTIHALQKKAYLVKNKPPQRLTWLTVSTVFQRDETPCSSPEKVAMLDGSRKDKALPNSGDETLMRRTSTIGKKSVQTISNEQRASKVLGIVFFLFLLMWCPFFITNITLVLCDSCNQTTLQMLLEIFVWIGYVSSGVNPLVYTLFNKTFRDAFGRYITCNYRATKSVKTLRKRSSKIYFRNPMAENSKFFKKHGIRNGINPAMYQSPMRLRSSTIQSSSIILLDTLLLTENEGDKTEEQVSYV
Chain of UniProt O00443 (whole entry, looked up): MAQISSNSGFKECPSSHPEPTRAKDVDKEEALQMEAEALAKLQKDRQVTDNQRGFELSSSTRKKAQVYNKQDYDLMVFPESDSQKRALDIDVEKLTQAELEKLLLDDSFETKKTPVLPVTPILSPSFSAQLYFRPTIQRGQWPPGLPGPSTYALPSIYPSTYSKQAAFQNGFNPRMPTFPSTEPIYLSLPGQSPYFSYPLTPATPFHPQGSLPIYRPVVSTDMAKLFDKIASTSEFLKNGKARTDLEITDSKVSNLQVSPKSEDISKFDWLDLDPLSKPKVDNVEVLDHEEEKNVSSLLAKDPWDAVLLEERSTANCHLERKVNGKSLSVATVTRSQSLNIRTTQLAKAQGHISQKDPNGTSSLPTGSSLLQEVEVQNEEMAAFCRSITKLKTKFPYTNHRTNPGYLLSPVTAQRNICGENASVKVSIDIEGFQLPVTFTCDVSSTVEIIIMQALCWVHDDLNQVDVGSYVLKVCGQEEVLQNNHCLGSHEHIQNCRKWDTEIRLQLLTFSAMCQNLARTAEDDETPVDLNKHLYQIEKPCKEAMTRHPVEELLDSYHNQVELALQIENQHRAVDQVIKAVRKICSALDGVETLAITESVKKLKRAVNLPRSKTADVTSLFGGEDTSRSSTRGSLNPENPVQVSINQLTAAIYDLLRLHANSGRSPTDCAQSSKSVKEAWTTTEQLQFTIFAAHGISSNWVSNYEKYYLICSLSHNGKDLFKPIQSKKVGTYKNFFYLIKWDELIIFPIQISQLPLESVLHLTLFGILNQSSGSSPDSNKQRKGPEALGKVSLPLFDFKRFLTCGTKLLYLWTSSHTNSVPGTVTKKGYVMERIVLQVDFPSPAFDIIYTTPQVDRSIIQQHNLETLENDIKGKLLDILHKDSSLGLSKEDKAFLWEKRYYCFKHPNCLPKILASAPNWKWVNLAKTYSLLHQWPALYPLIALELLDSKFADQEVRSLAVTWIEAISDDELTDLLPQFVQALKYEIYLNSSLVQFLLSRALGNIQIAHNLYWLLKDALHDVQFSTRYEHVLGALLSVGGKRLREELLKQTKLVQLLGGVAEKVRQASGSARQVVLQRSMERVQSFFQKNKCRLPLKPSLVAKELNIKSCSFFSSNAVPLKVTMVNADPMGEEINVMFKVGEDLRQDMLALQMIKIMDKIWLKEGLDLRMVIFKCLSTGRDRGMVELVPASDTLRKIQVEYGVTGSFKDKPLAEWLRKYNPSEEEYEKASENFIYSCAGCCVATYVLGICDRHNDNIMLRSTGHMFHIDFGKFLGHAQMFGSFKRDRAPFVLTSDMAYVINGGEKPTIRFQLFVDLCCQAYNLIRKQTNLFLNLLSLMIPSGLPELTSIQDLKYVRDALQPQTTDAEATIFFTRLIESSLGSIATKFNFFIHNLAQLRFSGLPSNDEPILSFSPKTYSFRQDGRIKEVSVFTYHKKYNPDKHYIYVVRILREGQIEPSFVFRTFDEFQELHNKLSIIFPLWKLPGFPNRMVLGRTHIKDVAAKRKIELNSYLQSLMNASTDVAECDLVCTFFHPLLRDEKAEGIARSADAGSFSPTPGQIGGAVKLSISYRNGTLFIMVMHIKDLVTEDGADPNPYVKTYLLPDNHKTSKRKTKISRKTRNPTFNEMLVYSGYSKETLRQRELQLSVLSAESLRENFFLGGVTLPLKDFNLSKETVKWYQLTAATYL
Chain of UniProt P42575 (whole entry, looked up): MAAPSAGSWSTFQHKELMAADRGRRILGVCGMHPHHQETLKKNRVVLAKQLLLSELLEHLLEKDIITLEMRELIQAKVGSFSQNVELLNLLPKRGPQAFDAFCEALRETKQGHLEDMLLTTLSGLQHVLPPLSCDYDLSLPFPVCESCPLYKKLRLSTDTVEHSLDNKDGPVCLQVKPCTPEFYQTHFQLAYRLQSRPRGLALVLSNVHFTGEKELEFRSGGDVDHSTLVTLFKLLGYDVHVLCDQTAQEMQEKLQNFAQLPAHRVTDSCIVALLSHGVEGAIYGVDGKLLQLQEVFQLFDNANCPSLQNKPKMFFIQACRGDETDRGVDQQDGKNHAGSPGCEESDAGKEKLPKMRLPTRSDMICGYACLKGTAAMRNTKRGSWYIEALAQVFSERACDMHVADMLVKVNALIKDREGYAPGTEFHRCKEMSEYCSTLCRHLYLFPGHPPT
Chain of UniProt P54578 (whole entry, looked up): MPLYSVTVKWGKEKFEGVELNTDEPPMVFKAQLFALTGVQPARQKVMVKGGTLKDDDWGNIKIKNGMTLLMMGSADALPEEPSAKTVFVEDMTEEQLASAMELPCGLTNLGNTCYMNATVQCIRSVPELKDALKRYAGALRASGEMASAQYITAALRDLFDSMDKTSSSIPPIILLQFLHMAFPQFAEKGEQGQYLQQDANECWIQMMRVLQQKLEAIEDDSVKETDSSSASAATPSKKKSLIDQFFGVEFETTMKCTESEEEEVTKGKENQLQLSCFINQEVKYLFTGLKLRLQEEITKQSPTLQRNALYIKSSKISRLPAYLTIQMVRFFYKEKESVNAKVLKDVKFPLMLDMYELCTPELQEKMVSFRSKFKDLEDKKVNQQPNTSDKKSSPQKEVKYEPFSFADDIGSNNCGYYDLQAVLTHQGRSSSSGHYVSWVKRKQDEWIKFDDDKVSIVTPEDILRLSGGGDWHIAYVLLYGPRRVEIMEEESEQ
Chain of UniProt O14733 (whole entry, looked up): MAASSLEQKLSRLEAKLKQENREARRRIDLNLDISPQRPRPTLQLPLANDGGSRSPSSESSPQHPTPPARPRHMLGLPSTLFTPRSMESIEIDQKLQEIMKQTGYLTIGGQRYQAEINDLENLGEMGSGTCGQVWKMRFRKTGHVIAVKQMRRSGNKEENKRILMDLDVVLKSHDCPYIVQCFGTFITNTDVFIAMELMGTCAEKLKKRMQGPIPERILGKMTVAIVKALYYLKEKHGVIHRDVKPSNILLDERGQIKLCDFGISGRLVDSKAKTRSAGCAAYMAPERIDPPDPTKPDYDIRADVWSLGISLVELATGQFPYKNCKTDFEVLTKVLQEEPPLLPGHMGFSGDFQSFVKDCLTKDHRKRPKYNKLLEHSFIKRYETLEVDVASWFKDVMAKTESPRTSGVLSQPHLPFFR

`C#CCN(Cc1cc(Cl)c2nc(C)[nH]c(=O)c2c1)c1ccc(C(=O)N[C@H](CCC(=O)O)C(=O)O)cc1` gave a Hill slope of 1.6 (4'-phosphopantetheinyl transferase PptT; enzyme activity, inhibitor, fluorescence polarisation).
`O=C1NC2(CC2)COc2ncc(F)cc2[C@H]2COCCN2c2ccn3ncc1c3n2` — result for “organ-to-body weight ratio”: 0.494 ± 0.041% (Sprague-Dawley rat, male, brain; oral, 2.5 mg/kg/day, 4 weeks, end of treatment).
`CC[C@H](C)[C@@H]1NC(=O)CNC(=O)[C@@H]2Cc3c([nH]c4cc(O)ccc34)[S@+]([O-])C[C@H](NC(=O)CNC1=O)C(=O)N[C@@H](CC(N)=O)C(=O)N1C[C@H](O)C[C@H]1C(=O)N[C@@H]([C@@H](C)[C@@H](O)CO)C(=O)N2` gave a transcription activity of 69 ± 9% (DNA-directed RNA polymerase II subunit RPB1 (Homo sapiens, UniProt P24928); HeLa nuclear extract; 3.0 nM, 60 min).
The relative abundance of `COc1ccccc1-c1n[nH]c2nc(N[C@H]3CC[C@H](NS(=O)(=O)CC(C)C)CC3)ncc12` is reported as 0.87 (bead binding, competition bead pull-down, measured: LINJ.35.2790; Leishmania donovani extract; 10 µM; reference: vehicle).
`C#CCN(Cc1ccc2nc(C)[nH]c(=O)c2c1)c1cnc(C(=O)NC(CCC(=O)O)C(=O)O)s1` (stereo not shown) has a Hill slope of 1.2 (4'-phosphopantetheinyl transferase PptT; enzyme activity, inhibitor, fluorescence polarisation).
For `CC(C)(C)C(=O)OCOP(=O)(OCOC(=O)C(C)(C)C)C1CCCN(O)C1=O` (stereo not shown), the GI50 was 0.34 µM (ACHN).
`CCCCCn1cc(C(=O)c2ccc3ccccc3c2)c2ccccc21` gave an Emax of 71.2 ± 5.8% (CNR1; GαoA activation, agonist, BRET; reference: reference agonist).
`C#CCN(Cc1ccc2nc(C)[nH]c(=O)c2c1)c1ccc(C(=O)NC(CCC(=O)O)C(=O)O)s1` (stereo not shown) has a Hill slope of 1.2 (4'-phosphopantetheinyl transferase PptT; enzyme activity, inhibitor, fluorescence polarisation).
For `Cc1cc(C(=O)Nc2nc3cccc(C)c3n2[C@H]2CCCCN(C(=O)/C=C/CN(C)C)C2)ccn1`, “EC50 fold shift” read 0.5 fold and 0.81 fold (Trypanosoma brucei; cell growth, Alamar Blue; 2T1 overexpressing Tb927.10.4940; reference: parental 2T1).
`CCCCCn1cc(C(=O)c2cccc3c2CC(C)(C)C3)c2ccccc21` gave an Emax of 101 ± 2.6% (CNR1; cAMP inhibition, agonist, CAMYEL BRET biosensor; added: forskolin 10 µM; reference: reference agonist at wild type).
With `C[C@H](N)C(=O)N[C@@H](C)C(=O)N[C@@H](C)C(=O)O` the kon was 1.16 ± 20000 M⁻¹ s⁻¹ (dppA; pH 7.4).
For `COc1ccc2nccc(CC[C@H]3OC[C@H](NC(=O)c4ccc(Cl)cc4)CO3)c2c1`, “maximal single-stranded DNA breaks” read roughly 3% (DNA gyrase subunit A, with GyrB (Mycobacterium tuberculosis, UniProt P9WG47); DNA cleavage; concentration not given, 10 min, 37 °C, added: gyrase 100 nM).
For `Cc1ccc2c(C(C[N+](=O)[O-])c3cccs3)c(-c3ccccc3)[nH]c2c1` (stereo not shown), the Emax was 104% (CNR1 (Homo sapiens, UniProt P21554, I245L); β-arrestin recruitment, agonist, luciferase).
For `CC(C)[C@H](N)C(=O)N[C@H](C(=O)N[C@@H](CCCCN)C(=O)O)C(C)C`, the kon was 3.1 ± 2000 M⁻¹ s⁻¹ (dppA; pH 7.4).
The remaining activity of `O=C1NC(=O)c2c1c1cc(F)c[n+]3c1c1c2c2cc(O)ccc2[n]1[Ru-4]312([N]=C=S)[S+]3CC[S+]1CC[S+]2CC3` (stereo not shown) is reported as 38% (MAP2K7 (Homo sapiens, UniProt O14733); enzyme activity; 100 nM, human enzyme, added: 10 µM ATP; reference: untreated).
`CC(C)CC(C(=O)N1CC2(CC1C#N)C(=O)Nc1ccccc12)N(C)C(=O)c1cc2c(F)cc(F)c(F)c2[nH]1` (stereo not shown) has a Hill slope of -0.21 (Caspase-2 (Homo sapiens, UniProt P42575)).
With `CC(C)[C@H](N)C(=O)N[C@@H](CCCCN)C(=O)N[C@H](C(=O)O)C(C)C` the kon was 7.49 ± 8000 M⁻¹ s⁻¹ (dppA; pH 7.4).
With `O=[N+]([O-])CC(c1ccco1)c1c(-c2ccccc2)[nH]c2ccccc12` (stereo not shown) the Emax was 25.9% (CNR1; G protein activation, agonist, BRET).
`C#CCN(Cc1ccc2nc(CC)[nH]c(=O)c2c1)c1ccc(C(=O)NC(CCC(=O)O)C(=O)O)cc1` (stereo not shown) has a Hill slope of 1.2 (4'-phosphopantetheinyl transferase PptT; enzyme activity, inhibitor, fluorescence polarisation).
With `Nc1ccc(/C=C/C(=O)N2CCc3c(oc4c(-c5ccc(F)cc5)cc(-c5ccc(C(=O)N6CCC(F)(F)CC6)cn5)cc34)C2)cn1` the remaining binding was 98% (CDK19 (Homo sapiens, UniProt Q9BWU1); KINOMEscan; 1 µM).
With `COc1ccccc1-c1n[nH]c2nc(NC3CCN(C(=O)Cc4ccc(F)cc4F)CC3)ncc12` the relative abundance was 0.99 (bead binding, competition bead pull-down, measured: LINJ.35.4540; Leishmania donovani axenic amastigote extract; 10 µM; reference: vehicle).
`C[C@H](NC(=O)[C@H](CCCNC(=N)N)NC(=O)[C@@H](N)Cc1ccccc1)C(=O)N[C@H]1CSCc2cccc(n2)CSC[C@@H](C(=O)N[C@H](C(=O)NCC(=O)N[C@@H](CO)C(=O)N[C@@H](Cc2ccc(O)cc2)C(=O)N[C@@H](Cc2c[nH]cn2)C(=O)N[C@@H](CCCCNC(=O)CN2CCN(CC(=O)O)CCN(CC(=O)O)CCN(CC(=O)O)CC2)C(=O)O)[C@@H](C)O)NC(=O)[C@H](CC(=O)O)NC(=O)[C@H](Cc2ccccc2)NC(=O)[C@@H]2CCCN2C1=O` [gallium-68 labelled] has a radiochemical purity of greater than 99% (radio-HPLC; 10% fetal bovine serum; 2 h, 37 °C).
The remaining binding of `Cc1sc2c(c1C)C(c1ccc(Cl)cc1)=NC(CC(=O)OC(C)(C)C)c1nnc(C)n1-2` (stereo not shown) is reported as 101% (HTR2B (Homo sapiens, UniProt P41595); ligand displacement, radioligand; 1 µM).
For `Cc1cc(Oc2nc(N3CC[C@@H](c4ccncc4)C3)ncc2F)[nH]n1`, the IC50 was 40.7 µM (ACHN; cell proliferation; kidney cancer).
`O=C(O)c1cnn(-c2ccccc2)c1OCCCCc1c[nH]c2ccccc12` has a binding stoichiometry of 0.5 (Phosphopantetheine adenylyltransferase (coaD, Mycobacterium tuberculosis, UniProt P9WPA5); ITC; concentration not given; ligand per protomer).
The Emax of `COc1ccccc1C(C[N+](=O)[O-])c1c(-c2ccccc2)[nH]c2ccccc12` (stereo not shown) is reported as 24.8 ± 1.55% (Cannabinoid receptor 1, with Gz (CNR1, Homo sapiens, UniProt P21554); Gz dissociation, agonist, BRET).
The kon of `CC(C)[C@H](N)C(=O)N[C@H](C(=O)N[C@H](C(=O)O)C(C)C)C(C)C` is reported as 3.44 ± 20000 M⁻¹ s⁻¹ (dppA; pH 7.4).
For `O=C(O)C(Cl)Cl.OCCN(CCO)CCO`, the herbicidal inhibition was -30% (Eclipta prostrata; 15 mg/mL, 21 days, post-emergence, greenhouse).
For `O=C1NC(=S)NC(=O)C1=C/C=C/c1ccco1`, the inhibition was 36% (USP14 (Homo sapiens, UniProt P54578); enzyme activity, inhibitor; 17 µM).
The inhibition of `CS(C)(=O)=Nc1ccc(-c2ccc(-c3nc4cc(O[C@@H]5CO[C@H]6[C@@H]5OC[C@H]6O)[nH]c4cc3F)cc2)cc1` is reported as 5% (PIK3C2A (Homo sapiens, UniProt O00443); enzyme activity, inhibitor; 10 µM).
With `Cc1nc2ccc(CN(C)c3sc(C(=O)NC(CCC(=O)O)C(=O)O)cc3F)cc2c(=O)[nH]1` (stereo not shown) the Hill slope was 1.3 (4'-phosphopantetheinyl transferase PptT; enzyme activity, inhibitor, fluorescence polarisation).
